Measurements pooled from the literature.
Lines come from different studies, so protocols differ. Numbers after ± are the reported error.
B1: DTYMK (Homo sapiens, UniProt P23919); chain MAARRGALIVLEGVDRAGKSTQSRKLVEALCAAGHRAELLRFPERSTEIGKLLSSYLQKKSDVEDHSVHLLFSANRWEQVPLIKEKLSQGVTLVVDRYAFSGVAFTGAKENFSLDWCKQPDVGLPKPDLVLFLQLQLADAAKRGAFGHERYENGAFQERALRCFHQLMKDTTLNWKMVDASKSIEAVHEDIRVLSEDAIRTATEKPLGELWK
B2: FNO G29S (Thermobifida fusca, UniProt Q47RA9); chain MIMIMASKSSPHDLPDVSGLSIAVLGGTSDQGRGLARRFAMAGHEVILGSRSAERAQAVAAELGEGLPVRGMDNAGAAEAGDVVIVAVPWDGHRALLESLKDVLAGKIVVDCVNPLGFDKRGAYALPVEEGSAAEQAAAILPDSRVVAAFHHVSAVLLLDPEVEKVDLDVLVLGDDREATDVVRALAARIPGVRGVYGGRLRNAHQVEAFTANLISINRRYKAHAGIRITDI
B3: DPP4 (Homo sapiens, UniProt P27487); chain MKTPWKVLLGLLGAAALVTIITVPVVLLNKGTDDATADSRKTYTLTDYLKNTYRLKLYSLRWISDHEYLYKQENNILVFNAEYGNSSVFLENSTFDEFGHSINDYSISPDGQFILLEYNYVKQWRHSYTASYDIYDLNKRQLITEERIPNNTQWVTWSPVGHKLAYVWNNDIYVKIEPNLPSYRITWTGKEDIIYNGITDWVYEEEVFSAYSALWWSPNGTFLAYAQFNDTEVPLIEYSFYSDESLQYPKTVRVPYPKAGAVNPTVKFFVVNTDSLSSVTNATSIQITAPASMLIGDHYLCDVTWATQERISLQWLRRIQNYSVMDICDYDESSGRWNCLVARQHIEMSTTGWVGRFRPSEPHFTLDGNSFYKIISNEEGYRHICYFQIDKKDCTFITKGTWEVIGIEALTSDYLYYISNEYKGMPGGRNLYKIQLSDYTKVTCLSCELNPERCQYYSVSFSKEAKYYQLRCSGPGLPLYTLHSSVNDKGLRVLEDNSALDKMLQNVQMPSKKLDFIILNETKFWYQMILPPHFDKSKKYPLLLDVYAGPCSQKADTVFRLNWATYLASTENIIVASFDGRGSGYQGDKIMHAINRRLGTFEVEDQIEAARQFSKMGFVDNKRIAIWGWSYGGYVTSMVLGSGSGVFKCGIAVAPVSRWEYYDSVYTERYMGLPTPEDNLDHYRNSTVMSRAENFKQVEYLLIHGTADDNVHFQQSAQISKALVDVGVDFQAMWYTDEDHGIASSTAHQHIYTHMSHFIKQCFSLP
B4: genB3 A452T/L401C/Q310N (Micromonospora echinospora, UniProt Q2MG50); chain MDSANLTNRGLVERARRVTAAENYDIGTRFSAMIQSGEGAWLTDVEGNRYVDLTASSGTIILGHRNQAVTEAITRQIRDFGTAFASTLSVPRVELAERLCERYECAEKVVFHKTGSEGTAMAARLARAATGRELILSCGYHGWHEWQLAGETFGYQQTTGVVGFGYNEKALAKMLEAFGNEVAGVLISPELLYFDVEFYQRMYALCARYDVPFMMDEVYTGFRAGPKGVHGLGVPADVVVVSKGLANGHSLAAVMGRRDIIDAYDVSGINGTYTREVPPMAAAMAVLDVLDTPGVYEHAEAMGRRLADGMREILTGEGIPNWVGGPALMFDTVLPNDDLGWEIYKTAHDFGVYFEDSGTQCVTTAFDEAAVDHALTAFRKATRQVIADRPDIAPTSGGELTEERKLDFAEETFGGLLRDDERTNALIDETIEKVVNRDRSIKPVLIPAQN
B5: PPIP5K2 (Homo sapiens, UniProt O43314); chain MSEAPRFFVGPEDTEINPGNYRHFFHHADEDDEEEDDSPPERQIVVGICSMAKKSKSKPMKEILERISLFKYITVVVFEEEVILNEPVENWPLCDCLISFHSKGFPLDKAVAYAKLRNPFVINDLNMQYLIQDRREVYSILQAEGILLPRYAILNRDPNNPKECNLIEGEDHVEVNGEVFQKPFVEKPVSAEDHNVYIYYPTSAGGGSQRLFRKIGSRSSVYSPESNVRKTGSYIYEEFMPTDGTDVKVYTVGPDYAHAEARKSPALDGKVERDSEGKEVRYPVILNAREKLIAWKVCLAFKQTVCGFDLLRANGQSYVCDVNGFSFVKNSMKYYDDCAKILGNIVMRELAPQFHIPWSIPLEAED
B6: protein (Thermotoga neapolitana, UniProt B9K712); chain MKMLYDLAKKRKTVRRFKKEKPPLEDLIYSLKVANEAPSGMNAQPWRFLIVEDEKLKGQIRRVCERSEKTFYENVRGRLKEWLDEKRFTWRKPFLKEAPYLLLVFSEKSAPYSRESVWLAVGYLLLALEEKGLGSVPYTPPDFREVEKLVNTPSELRLEVILPVGYPDDPKPKYPRNEVIVRYNTF
B7: enzyme (Streptomyces venezuelae, UniProt Q9ZGI2); chain SGADTGAGAGMFRALFRQAVEDDRYGEFLDVLAEASAFRPQFASPEACSERLDPVLLAGGPTDRAEGRAVLVGCTGTAANGGPHEFLRLSTSFQEERDFLAVPLPGYGTGTGTGTALLPADLDTALDAQARAILRAAGDAPVVLLGHSGGALLAHELAFRLERAHGAPPAGIVLVDPYPPGHQEPIEVWSRQLGEGLFAGELEPMSDARLLAMGRYARFLAGPRPGRSSAPVLLVRASEPLGDWQEERGDWRAHWDLPHTVADVPGDHFTMMRDHAPAVAEAVLSWLDAIEGIEGAGK
B8: CYP2C19 (Homo sapiens, UniProt P33261); chain MDPFVVLVLCLSCLLLLSIWRQSSGRGKLPPGPTPLPVIGNILQIDIKDVSKSLTNLSKIYGPVFTLYFGLERMVVLHGYEVVKEALIDLGEEFSGRGHFPLAERANRGFGIVFSNGKRWKEIRRFSLMTLRNFGMGKRSIEDRVQEEARCLVEELRKTKASPCDPTFILGCAPCNVICSIIFQKRFDYKDQQFLNLMEKLNENIRIVSTPWIQICNNFPTIIDYFPGTHNKLLKNLAFMESDILEKVKEHQESMDINNPRDFIDCFLIKMEKEKQNQQSEFTIENLVITAADLLGAGTETTSTTLRYALLLLLKHPEVTAKVQEEIERVIGRNRSPCMQDRGHMPYTDAVVHEVQRYIDLIPTSLPHAVTCDVKFRNYLIPKGTTILTSLTSVLHDNKEFPNPEMFDPRHFLDEGGNFKKSNYFMPFSAGKRICVGEGLARMELFLFLTFILQNFNLKSLIDPKDLDTTPVVNGFASVPPFYQLCFIPV
Chain of UniProt P51589 (whole entry, looked up): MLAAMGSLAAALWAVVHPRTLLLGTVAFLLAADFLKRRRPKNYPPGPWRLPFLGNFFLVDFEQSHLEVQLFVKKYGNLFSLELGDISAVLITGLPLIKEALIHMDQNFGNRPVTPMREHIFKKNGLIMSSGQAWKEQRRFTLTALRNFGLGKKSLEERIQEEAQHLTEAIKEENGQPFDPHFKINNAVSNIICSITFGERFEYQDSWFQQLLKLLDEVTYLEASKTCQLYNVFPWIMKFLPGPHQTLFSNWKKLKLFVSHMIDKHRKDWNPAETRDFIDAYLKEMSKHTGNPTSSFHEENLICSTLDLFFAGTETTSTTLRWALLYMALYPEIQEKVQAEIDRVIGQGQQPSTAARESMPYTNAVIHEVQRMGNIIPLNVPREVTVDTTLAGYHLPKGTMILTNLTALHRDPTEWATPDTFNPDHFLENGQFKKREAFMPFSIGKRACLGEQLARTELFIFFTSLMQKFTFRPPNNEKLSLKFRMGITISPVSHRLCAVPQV

| Substance | tested on | test | test system | setting | scale | measurement | result |
| --- | --- | --- | --- | --- | --- | --- | --- |
| B1 (DTYMK) | Cc1cn([C@@H]2C[C@@H](O)[C@H](COP(=O)(O)O)O2)c(=O)[nH]c1=O | steady-state kinetics |  | added: ATP 2 mM, Mg2+ 2 mM |  | kcat | 0.34 ± 0.03 s⁻¹ |
| CYP2J2 (Homo sapiens, UniProt P51589) | COc1ccc2c(c1)OC1=C(/C=C/c3sc4ccccc4[n+]3C)CCCC1=C2 | steady-state kinetics |  | pH 7.4, 37 °C |  | kcat | 0.382 s⁻¹ |
| B2 (FNO G29S) | NC(=O)C[n+]1cccc(C(N)=O)c1 | steady-state kinetics |  | pH 8, 25 °C, added: F420H2 40 µM |  | kcat | 0.16 ± 0.00933 s⁻¹ |
| B3 (DPP4) | NCC(=O)N1CCC[C@H]1C(=O)Nc1ccc([N+](=O)[O-])cc1 | steady-state kinetics |  | pH 7.5 |  | kcat | 17.6 s⁻¹ |
| B4 (genB3 A452T/L401C/Q310N) | CN[C@@H]1[C@@H](O)[C@@H](O[C@@H]2[C@@H](O)[C@H](O[C@H]3O[C@H](CN)[C@@H](O)[C@H](OP(=O)(O)O)[C@H]3N)[C@@H](N)C[C@H]2N)OC[C@]1(C)O | steady-state kinetics |  | 30 °C |  | kcat | 0.02 ± 0.00283 s⁻¹ |
| B5 (PPIP5K2) | O=P(O)(O)O[C@@H]1[C@@H](OP(=O)(O)O)[C@@H](OP(=O)(O)O)[C@@H](OP(=O)(O)OP(=O)(O)O)[C@H](OP(=O)(O)O)[C@H]1OP(=O)(O)O | steady-state kinetics |  |  |  | kcat | 0.002 s⁻¹ |
| B6 (protein) | N[C@@H](Cc1ccc(O)c(I)c1)C(=O)O | steady-state kinetics |  | pH 7.4, 25 °C |  | kcat | 0.0267 ± 0.00167 s⁻¹ |
| B7 (enzyme) | CC[C@H](O)[C@H](C)/C=C/C(=O)[C@H](C)C[C@H](C)[C@H](OC)[C@@H](C)C(=O)SCCNC(C)=O | steady-state kinetics |  |  |  | kcat | 0.143 ± 0.007 s⁻¹ |
| GACAUGGUCCGGUAGUUCAGUUGGUUAGAAUGCCUGCCUGUCACGCAGGAGGUCGCGGGUUCGAGUCCCGUCCGGACCG (tRNA (Bacillus subtilis); 5'-GMPS, tRNA fold) | PRORP1 77-572 T180S (Arabidopsis thaliana, UniProt Q66GI4) | fluorescence anisotropy | folded RNA | NaCl 1 M | reference: wild-type target | binding free energy loss | 1.5 kcal/mol |
| B8 (CYP2C19) | CC(C)(C)NC(CO)c1cc(Cl)c(N)c(C(F)(F)F)c1 | steady-state kinetics |  | pH 7.4, 37 °C, not purified |  | kcat | 0.00105 ± 4.43e-05 s⁻¹ |
| enzyme (Astragalus mongholicus, UniProt A0A977WMR2) | CC(C)(O)[C@@H]1CC[C@](C)([C@H]2[C@@H](O)C[C@@]3(C)[C@@H]4C[C@H](O[C@@H]5O[C@H](CO)[C@@H](O)[C@H](O)[C@H]5O)[C@H]5C(C)(C)[C@@H](O)CC[C@@]56C[C@@]46CC[C@]23C)O1 | steady-state kinetics |  |  |  | kcat | 0.0003 s⁻¹ |
| enzyme (Streptomyces filamentosus, UniProt A0ABY4UVI6) | CC(C)C[C@H](NC(=O)c1cc(O)cc(-c2ccccn2)n1)C(=O)O | steady-state kinetics |  | pH 8, 30 °C |  | kcat | 0.0325 ± 0.000833 s⁻¹ |

A few entries again:
| Substance | tested on | test | test system | setting | scale | measurement | result |
| --- | --- | --- | --- | --- | --- | --- | --- |
| GACAUGGUCCGGUAGUUCAGUUGGUUAGAAUGCCUGCCUGUCACGCAGGAGGUCGCGGGUUCGAGUCCCGUCCGGACCG (tRNA (Bacillus subtilis); 5'-GMPS, tRNA fold) | PRORP1 77-572 T180S (Arabidopsis thaliana, UniProt Q66GI4) | fluorescence anisotropy | folded RNA | NaCl 1 M | reference: wild-type target | binding free energy loss | 1.5 kcal/mol |
